Measurements pooled from the literature.
Every numbered part comes from another study and shows a few of its results, in no order. Substitutions count along the parent as printed.

Set 1 — technique: RNAcompete; form: RNA; sample: in vitro; tested at: 20 nM; setting: 7-mer, probes averaged, single round; relative to: mean of 7-mers; direction: higher = stronger binding
Target: PABPC1L2, full length, GST fusion (mouse, UniProt A0ABA7IW68)
Construct (chain): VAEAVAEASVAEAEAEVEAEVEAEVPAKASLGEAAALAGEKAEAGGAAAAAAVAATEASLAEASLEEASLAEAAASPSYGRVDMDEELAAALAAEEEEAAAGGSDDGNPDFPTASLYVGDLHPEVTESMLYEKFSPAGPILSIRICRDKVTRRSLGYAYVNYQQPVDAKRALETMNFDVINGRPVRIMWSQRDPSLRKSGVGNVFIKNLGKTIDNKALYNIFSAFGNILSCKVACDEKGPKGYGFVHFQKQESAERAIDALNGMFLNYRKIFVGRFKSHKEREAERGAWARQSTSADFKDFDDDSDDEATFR
Strand | 7-mer Z-score
UUCACGC | -0.344
GCACAAU | -0.0373
CCUCUGG | -0.421
CGCUGUG | -0.318
CACCAAU | -0.251
UGACAUC | -0.177
CUCCAAC | -0.264
CGUAGAU | -0.311

Set 2 — technique: protein-binding microarray; form: double-stranded DNA, one strand shown; sample: in vitro; tested at: not given; direction: higher = stronger binding
Target: Runt-related transcription factor 1 (RUNX1, Homo sapiens, UniProt Q01196, residues 1-453, full length assumed)
Chain of UniProt Q01196 (whole entry, looked up): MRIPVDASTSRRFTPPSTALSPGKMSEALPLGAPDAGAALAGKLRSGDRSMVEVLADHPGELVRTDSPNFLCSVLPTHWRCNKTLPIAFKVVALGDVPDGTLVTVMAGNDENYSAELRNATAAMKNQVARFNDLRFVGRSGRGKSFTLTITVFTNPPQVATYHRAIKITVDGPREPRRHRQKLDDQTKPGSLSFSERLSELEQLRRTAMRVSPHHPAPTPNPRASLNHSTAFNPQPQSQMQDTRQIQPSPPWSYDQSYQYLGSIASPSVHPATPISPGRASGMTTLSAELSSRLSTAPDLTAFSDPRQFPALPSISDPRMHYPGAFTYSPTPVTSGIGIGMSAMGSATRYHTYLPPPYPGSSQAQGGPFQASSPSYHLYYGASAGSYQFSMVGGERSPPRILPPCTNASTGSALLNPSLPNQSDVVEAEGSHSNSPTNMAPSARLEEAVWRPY
Setting: k-mer, scored over probes, only values ≥0.25
Strand | E-score
TACCGCA | 0.48
CACAAAC | 0.324
AGCCGCA | 0.27
CCACAAG | 0.269
GTTATAA | 0.288
GCGGTTA | 0.48
AAGTGGT | 0.306
CGGTTAA | 0.293

Set 3 — target: CRIPT, C-terminal peptide; technique: DHFR complementation, deep sequencing; sample: yeast; relative to: wild type; direction: higher = weaker binding
Setting: single substitutions, model-inferred values
Parent: ERBIN, PDZ domain 1 (human); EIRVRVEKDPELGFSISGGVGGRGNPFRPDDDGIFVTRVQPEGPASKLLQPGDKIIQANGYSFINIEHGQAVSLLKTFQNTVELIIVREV; partner TKNYKQTSV
Substitution | binding free energy change [kcal/mol]
I66G | 1.35
L48W | -0.0455
K47W | 0.284
L48I | 0.0446
G52D | 0.997
V87G | -0.0888
S62G | -0.00666
L48A | 0.122

Mixed results
Structure (SMILES) | host | sample | tested at | time | quantity | value
O=S(=O)(CCc1ccccc1)NCCc1csc2nc(-c3ccccc3F)nn12 | mouse | microsomes or S9 | 2 µM | 0.5 h | remaining compound | 4.71%

Some of these lines once more (set 2):
Strand | E-score
GTTATAA | 0.288
GCGGTTA | 0.48
AAGTGGT | 0.306
CGGTTAA | 0.293
